{"data": "Experimental data gathered from unrelated publications", "note": "Each numbered part is a random draw from the data of one study; scales do not carry over between parts. Several values in a cell are separate wells, animals, samples, runs or records.", "UniProt Q99640, sequence (whole entry, looked up)": "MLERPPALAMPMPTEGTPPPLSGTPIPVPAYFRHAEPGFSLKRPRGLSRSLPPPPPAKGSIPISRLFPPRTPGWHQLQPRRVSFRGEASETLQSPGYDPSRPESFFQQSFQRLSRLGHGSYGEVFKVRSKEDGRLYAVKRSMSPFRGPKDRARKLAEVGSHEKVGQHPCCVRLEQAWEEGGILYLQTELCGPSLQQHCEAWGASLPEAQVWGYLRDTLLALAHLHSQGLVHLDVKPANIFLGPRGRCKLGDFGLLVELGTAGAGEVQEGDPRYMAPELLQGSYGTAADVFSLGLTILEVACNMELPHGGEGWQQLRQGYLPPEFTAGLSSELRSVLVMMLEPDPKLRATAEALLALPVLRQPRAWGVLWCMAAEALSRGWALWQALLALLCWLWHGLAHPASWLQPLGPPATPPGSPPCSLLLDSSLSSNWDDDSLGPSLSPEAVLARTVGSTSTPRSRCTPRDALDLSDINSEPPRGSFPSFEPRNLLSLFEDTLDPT"}
{"data": "Sample 1", "cell line": "Gaucher fibroblasts L444P/L444P", "technique": "4-MUG hydrolysis, cell lysate", "concentration": "1 µM", "reference": "DMSO"}
{"SMILES": "Ic1ccc(Nc2nc(NCCN3CCOCC3)nc(N3CCNCC3)n2)cc1", "GCase activity": "106% and 108% and 111% and 104% and 102% and 114%"}
{"SMILES": "Ic1ccc(Nc2nc(NCCN3CCOCC3)nc(N3CC4CC3CO4)n2)cc1 (stereo not drawn)", "GCase activity": "96.5% and 103% and 93.3% and 109% and 99.5% and 97.8%"}
{"SMILES": "CCOc1ccc2nc(Sc3nc(NCCN4CCOCC4)nc(Nc4ccc(I)cc4)n3)sc2c1", "GCase activity": "109% and 108% and 116% and 92.8%"}
{"SMILES": "Ic1ccc(Nc2nc(NCCN3CCOCC3)nc(NC3CCCCC3)n2)cc1", "GCase activity": "92.3% and 107% and 104% and 93.7% and 93.5%"}
{"SMILES": "c1ccc(Nc2nc(NCCN3CCOCC3)nc(N3CCOCC3)n2)cc1", "GCase activity": "99.9% and 102% and 98% and 95.9% and 100%"}
{"SMILES": "Ic1ccc(Nc2nc(N3CCOCC3)nc(N3CCOCC3)n2)cc1", "GCase activity": "186% and 134% and 174% and 146% and 190%"}
{"SMILES": "Ic1ccc(Nc2nc(NCCCN3CCOCC3)nc(N3CCOCC3)n2)cc1", "GCase activity": "141% and 152% and 148% and 173% and 163%"}
{"SMILES": "CCOc1ccc2nc(Sc3nc(Nc4ccc(OC)cc4)nc(N4CCOCC4)n3)sc2c1", "GCase activity": "117% and 121% and 118%"}
{"data": "Sample 2", "SMILES": "NCc1ccc(Cn2cc(Cc3cc(N)nc4[nH]nnc34)cn2)cc1", "target": "Myeloperoxidase (MPO, Homo sapiens, UniProt P05164)", "UniProt P05164, sequence (whole entry, looked up)": "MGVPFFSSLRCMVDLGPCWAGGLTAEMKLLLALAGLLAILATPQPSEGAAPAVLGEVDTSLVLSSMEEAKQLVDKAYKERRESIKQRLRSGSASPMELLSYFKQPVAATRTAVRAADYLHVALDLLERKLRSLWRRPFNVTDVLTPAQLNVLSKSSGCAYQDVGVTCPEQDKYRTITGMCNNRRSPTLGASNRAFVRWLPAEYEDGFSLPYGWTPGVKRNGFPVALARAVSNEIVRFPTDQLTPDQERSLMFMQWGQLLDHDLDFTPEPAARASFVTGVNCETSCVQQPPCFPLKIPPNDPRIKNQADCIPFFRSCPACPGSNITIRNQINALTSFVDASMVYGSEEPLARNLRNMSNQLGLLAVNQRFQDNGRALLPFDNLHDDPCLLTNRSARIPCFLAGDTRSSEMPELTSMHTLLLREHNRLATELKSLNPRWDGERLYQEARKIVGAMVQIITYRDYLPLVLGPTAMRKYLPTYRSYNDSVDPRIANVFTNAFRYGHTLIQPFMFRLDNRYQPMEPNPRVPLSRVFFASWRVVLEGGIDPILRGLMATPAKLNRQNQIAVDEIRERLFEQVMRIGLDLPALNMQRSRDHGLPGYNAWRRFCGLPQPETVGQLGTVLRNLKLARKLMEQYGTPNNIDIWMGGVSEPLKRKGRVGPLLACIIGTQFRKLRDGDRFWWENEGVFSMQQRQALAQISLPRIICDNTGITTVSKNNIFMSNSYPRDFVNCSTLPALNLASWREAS"}
{"effect on": "enzyme activity", "mode": "inhibitor", "technique": "fluorescence", "concentration": "0.1235 µM", "inhibition": "91.5%"}
{"effect on": "H2O2 consumption", "technique": "Amplex Red", "concentration": "0.3704 µM", "inhibition": "97.4%"}
{"effect on": "H2O2 consumption", "technique": "Amplex Red", "concentration": "0.1235 µM", "inhibition": "90.9%"}
{"effect on": "H2O2 consumption", "technique": "Amplex Red", "concentration": "10 µM", "inhibition": "99.8%"}
{"effect on": "enzyme activity", "mode": "inhibitor", "technique": "fluorescence", "concentration": "500 pM", "inhibition": "-0.29%"}
{"data": "Sample 3", "SMILES": "CCN1/C(=C/C=C2\\CCCC(/C=C/C3=[N+](CC)c4ccccc4C3(C)C)=C2NCCCCCCCCN2CCC(Nc3nc4ccccc4n3Cc3ccc(F)cc3)CC2)C(C)(C)c2ccccc21", "cell line": "U-87 MG", "concentration": "concentration not given", "reference": "DMSO"}
{"refers to": "CDC25B mRNA", "log2 fold change": -1.9}
{"refers to": "KCP mRNA", "log2 fold change": 2.41}
{"refers to": "NIBAN1 mRNA", "log2 fold change": 1.02}
{"refers to": "ZNF644 mRNA", "log2 fold change": 0.884}
{"refers to": "SDC1 mRNA", "log2 fold change": -1.92}
{"refers to": "FOSB mRNA", "log2 fold change": -2.24}
{"refers to": "VPS37A mRNA", "log2 fold change": 0.932}
{"refers to": "ANO3 mRNA", "log2 fold change": 4.51}
{"refers to": "TRIM25 mRNA", "log2 fold change": 0.816}
{"refers to": "NPY4R mRNA", "log2 fold change": -3.88}
{"refers to": "LURAP1L mRNA", "log2 fold change": 1.01}
{"refers to": "AURKB mRNA", "log2 fold change": -2.17}
{"refers to": "MEX3C mRNA", "log2 fold change": 0.81}
{"refers to": "RPS6KA2 mRNA", "log2 fold change": 2.32}
{"refers to": "CCNJ mRNA", "log2 fold change": 1.05}
{"refers to": "B3GNTL1 mRNA", "log2 fold change": -0.96}
{"data": "Mixed results"}
{"Structure (SMILES)": "Cc1ccc(O)c(C)c1-c1cnc2[nH]c(-c3cnc(N4CCC(CCN5CCN(c6cc7c(cc6F)c(N6CCC(=O)NC6=O)nn7C)CC5)CC4)nc3)cc2c1C#N", "tested on": "PKMYT1 (Homo sapiens, UniProt Q99640)", "assay": "binding, HTRF", "setting": "0.15 nM", "measurement": "inhibition", "result": "-0.989% and -0.689%"}
{"Structure (SMILES)": "Cc1ccc(O)c(C)c1-c1cnc2[nH]c(-c3cnc(N)nc3)cc2c1C#N", "test system": "male Sprague-Dawley rat, plasma", "setting": "intravenous", "measurement": "clearance", "result": "17.7 mL/min/kg"}
{"Structure (SMILES)": "Cc1ccc(O)c(C)c1-c1cnc2[nH]c(-c3cnc(N4CCC5(CC4)CC(N4CCN(c6ccc(N[C@H]7CCC(=O)NC7=O)cc6F)CC4)CO5)nc3)cc2c1C#N (single isomer, unassigned)", "tested on": "HCC1569", "assay": "CDK1 Thr14 phosphorylation, Jess immunoblot", "setting": "100 nM, 24 h then washout", "measurement": "duration of inhibition after washout", "result": "≥ 24 h"}
{"Structure (SMILES)": "Cc1ncc(-c2cc3c(C#N)c(-c4c(C)ccc(O)c4C)cnc3[nH]2)cn1", "test system": "phosphate buffer", "setting": "24 h, pH 7.4", "measurement": "kinetic solubility", "result": "25.8 µM"}
